{"data": "Results pooled from the literature", "note": "Parts stem from different laboratories: compare values within a part only. Positions count from the first letter of the parent shown."}
{"data": "Series 1", "target": "Sal-like protein 4, full length isoform B (SALL4, Homo sapiens, UniProt Q9UJQ4-2, residues 1-616)", "method": "universal PBM", "molecule type": "double-stranded DNA, one strand shown", "medium": "in vitro", "tested at": "not given", "notes": "8-mer, flanks averaged, mean of replicates", "direction": "higher = stronger binding", "Construct (chain)": "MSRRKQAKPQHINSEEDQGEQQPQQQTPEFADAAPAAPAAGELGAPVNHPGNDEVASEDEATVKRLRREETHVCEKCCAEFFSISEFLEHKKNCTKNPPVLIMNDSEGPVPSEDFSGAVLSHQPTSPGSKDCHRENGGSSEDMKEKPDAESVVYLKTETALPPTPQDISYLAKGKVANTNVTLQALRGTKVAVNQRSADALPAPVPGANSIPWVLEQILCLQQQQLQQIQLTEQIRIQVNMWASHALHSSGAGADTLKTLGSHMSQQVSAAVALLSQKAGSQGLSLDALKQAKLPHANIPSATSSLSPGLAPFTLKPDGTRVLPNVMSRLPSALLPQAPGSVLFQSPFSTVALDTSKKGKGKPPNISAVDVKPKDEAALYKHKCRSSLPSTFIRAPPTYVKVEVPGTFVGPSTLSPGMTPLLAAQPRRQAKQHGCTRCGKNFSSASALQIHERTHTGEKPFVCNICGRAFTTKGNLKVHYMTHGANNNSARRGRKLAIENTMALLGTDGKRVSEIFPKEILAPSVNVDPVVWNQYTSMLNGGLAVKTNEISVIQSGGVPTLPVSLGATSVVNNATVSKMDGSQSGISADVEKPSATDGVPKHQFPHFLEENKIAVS"}
{"Strand": "CGCGTGAA", "E-score": -0.0777}
{"Strand": "ATCTTTTA", "E-score": 0.284}
{"Strand": "AGTTAACT", "E-score": -0.0678}
{"Strand": "CCTCCGTA", "E-score": -0.181}
{"Strand": "ACCCGTCA", "E-score": -0.252}
{"Strand": "ACACGTAC", "E-score": 0.0789}
{"Strand": "GCAGGCGA", "E-score": -0.217}
{"Strand": "CCGAGTCG", "E-score": -0.312}
{"Strand": "GATAACCA", "E-score": 0.114}
{"Strand": "ATATCACG", "E-score": 0.259}
{"Strand": "CCCTCAAC", "E-score": -0.178}
{"Strand": "TCACGCGA", "E-score": -0.0766}
{"data": "Series 2", "target": "PABPC1L2, full length, GST fusion (mouse, UniProt A0ABA7IW68)", "method": "RNAcompete", "molecule type": "RNA", "medium": "in vitro", "tested at": "20 nM", "notes": "7-mer, probes averaged, single round", "reference": "mean of 7-mers", "direction": "higher = stronger binding", "Residues (chain)": "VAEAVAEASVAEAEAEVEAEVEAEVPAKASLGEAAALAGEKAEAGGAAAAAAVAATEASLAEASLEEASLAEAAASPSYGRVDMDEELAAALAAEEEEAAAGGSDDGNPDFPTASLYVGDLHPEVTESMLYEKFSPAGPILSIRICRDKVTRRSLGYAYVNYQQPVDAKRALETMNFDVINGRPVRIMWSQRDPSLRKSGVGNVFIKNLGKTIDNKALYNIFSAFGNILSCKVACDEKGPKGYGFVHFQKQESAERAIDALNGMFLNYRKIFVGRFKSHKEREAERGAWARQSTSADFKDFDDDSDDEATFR"}
{"Strand": "CACAAAU", "7-mer Z-score": 0.644}
{"Strand": "CCCAAGC", "7-mer Z-score": -0.22}
{"Strand": "ACGCCGA", "7-mer Z-score": -0.208}
{"Strand": "CUGUGCG", "7-mer Z-score": -0.298}
{"Strand": "UCCAUGU", "7-mer Z-score": -0.233}
{"Strand": "UGGUAGG", "7-mer Z-score": -0.0301}
{"Strand": "UAGUCCU", "7-mer Z-score": -0.382}
{"Strand": "UUCGAGC", "7-mer Z-score": -0.258}
{"Strand": "UUAGUGG", "7-mer Z-score": 0.0152}
{"data": "Series 3", "target": "CCNB3, cyclin fold, Cln2 fusion (human)", "method": "yeast growth competition, sequencing", "medium": "yeast", "notes": "weak parent motif", "reference": "not given", "direction": "higher = stronger binding", "starting sequence": "ORC1 docking peptide (human); PRARKRLELGNLG"}
{"Variant": "P1L", "normalised enrichment score": -0.0601}
{"Variant": "K5S", "normalised enrichment score": 0.311}
{"Variant": "E8V", "normalised enrichment score": 0.721}
{"Variant": "R2I", "normalised enrichment score": 0.599}
{"Variant": "E8I", "normalised enrichment score": -0.118}
{"Variant": "A3F", "normalised enrichment score": 0.156}
{"Variant": "N11D", "normalised enrichment score": 0.292}
{"Variant": "G10S", "normalised enrichment score": -0.193}
{"Variant": "R4S", "normalised enrichment score": 0.0213}
{"data": "Mixed results"}
{"Molecule": "PhoQ, residues 284 288 289 292 302 303 NLGVHL", "target": "PhoP, residues 12 14 15 18 19 VQGLL (Escherichia coli, UniProt P23836)", "test": "Sort-seq, refers to: YFP reporter", "test system": "E. coli", "conditions": "PhoQ-PhoP variant library, together with: 10 µM Mg2+", "how to read": "reference: high Mg2+ state, higher = stronger signaling", "endpoint": "fold induction", "result": 2.81}
{"note": "For quick reference, copied from above (series 2):"}
{"Strand": "UGGUAGG", "7-mer Z-score": -0.0301}
{"Strand": "UAGUCCU", "7-mer Z-score": -0.382}
{"Strand": "UUCGAGC", "7-mer Z-score": -0.258}
{"Strand": "UUAGUGG", "7-mer Z-score": 0.0152}
